Results of several laboratories.
A part holds a random share of what one study measured. Substitutions count along the parent as printed.

Block 1
Partner: H2BC13 (Homo sapiens, UniProt Q99880)
Method: cross-linking MS
Setting: hits only
Quantity: interaction screen
H2BC15 (Homo sapiens, UniProt Q99877): cross-linked
H2AC6 (Homo sapiens, UniProt Q93077): cross-linked
H2BC3 (Homo sapiens, UniProt P33778): cross-linked
H2AC11 (Homo sapiens, UniProt P0C0S8): cross-linked
H2AC21 (Homo sapiens, UniProt Q8IUE6): cross-linked

Block 2
Target: XBP1, bZIP domain (human)
Method: DHFR protein complementation
Sample: yeast
Setting: single substitutions, most at no-binding floor
Baseline: wild-type JUN-FOS pair
Direction: higher = stronger binding
Quantity: binding fitness
Parent: JUN, bZIP domain (human); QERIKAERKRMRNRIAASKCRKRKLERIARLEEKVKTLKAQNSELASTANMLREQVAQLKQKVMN; partner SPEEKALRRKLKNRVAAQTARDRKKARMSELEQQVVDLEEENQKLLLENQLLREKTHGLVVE
K36S: -0.948 natural log
E54W: -1.44 natural log
E44Y: -1.24 natural log
L31R: -1.42 natural log
A46E: -0.63 natural log
R53P: -1.45 natural log
I28F: -1.24 natural log
L38W: -1.32 natural log
E44F: -1.24 natural log
M51L: -0.73 natural log
A46T: -0.552 natural log

Block 3
Target: CCNA2, cyclin fold, Cln2 fusion (human)
Method: yeast growth competition, sequencing
Sample: yeast
Setting: strong parent motif
Baseline: not given
Direction: higher = stronger binding
Quantity: normalised enrichment score
Parent: RBL2 docking peptide (human); STTRRRLFVENDS; partner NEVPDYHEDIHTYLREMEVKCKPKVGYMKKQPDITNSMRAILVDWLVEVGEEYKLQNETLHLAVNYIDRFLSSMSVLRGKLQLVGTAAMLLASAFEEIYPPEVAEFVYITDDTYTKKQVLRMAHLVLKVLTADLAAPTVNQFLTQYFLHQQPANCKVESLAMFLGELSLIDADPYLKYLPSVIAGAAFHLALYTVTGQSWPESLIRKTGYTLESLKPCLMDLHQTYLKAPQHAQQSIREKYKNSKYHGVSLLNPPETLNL
F8G: -0.18
D12R: 5.74
E10W: 3.48
D12I: 5.59
E10D: 6.66
N11W: 5.59
T3W: 5.04
S13E: 5.83
E10M: 4.77
N11I: 5.03
T2S: 5.4
S1E: 3.74
F8R: 0.901
R5I: 1.31
S1F: 4.76

Block 4
Target: ABI1, truncated, D143A, DHFR fusion (Arabidopsis thaliana)
Method: DHFR PCA, deep sequencing
Sample: yeast
Setting: methotrexate growth selection, single substitutions
Together with: (+)-ABA 0.39 µM
Baseline: wild-type fitted maximum
Direction: higher = stronger binding
Quantity: relative binding score
Parent: PYL1, truncated, DHFR fusion (Arabidopsis thaliana); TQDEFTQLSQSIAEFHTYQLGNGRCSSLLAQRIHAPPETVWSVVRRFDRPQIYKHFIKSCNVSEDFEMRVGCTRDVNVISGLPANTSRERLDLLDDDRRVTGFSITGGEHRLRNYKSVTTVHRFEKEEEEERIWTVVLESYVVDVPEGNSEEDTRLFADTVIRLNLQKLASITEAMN; partner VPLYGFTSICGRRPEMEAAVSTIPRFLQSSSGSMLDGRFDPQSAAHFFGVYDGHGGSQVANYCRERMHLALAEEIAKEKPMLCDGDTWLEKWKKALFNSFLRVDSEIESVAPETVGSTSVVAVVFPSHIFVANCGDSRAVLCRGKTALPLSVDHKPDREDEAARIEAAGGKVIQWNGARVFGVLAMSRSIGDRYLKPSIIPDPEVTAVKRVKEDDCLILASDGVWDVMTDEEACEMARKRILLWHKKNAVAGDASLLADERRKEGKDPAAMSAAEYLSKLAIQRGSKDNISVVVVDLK
V70C: -3.33%
R74Y: -9.47%
R90H: 10.9%
A158V: 82.4%
S26Q: 9.15%
P36V: 2.18%
L29F: -3.44%
E67W: 6.94%
V100L: 10.1%
S87G: -1.42%
R32L: 44.3%
R132K: 67.8%
N114T: -15.4%
Y18S: 1.15%
E174G: -12.2%
E67F: 3.34%

Block 5
Target: Histone acetyltransferase KAT6A, winged helix 1, GST fusion (KAT6A, Homo sapiens, UniProt Q92794, residues 1-85)
Method: protein binding microarray
Molecule type: double-stranded DNA, one strand shown
Sample: in vitro
Concentration: not given
Setting: 8-mer, flanks averaged, mean of 2 arrays, mostly near background
Baseline: not given
Direction: higher = stronger binding
Quantity: E-score
Construct (chain): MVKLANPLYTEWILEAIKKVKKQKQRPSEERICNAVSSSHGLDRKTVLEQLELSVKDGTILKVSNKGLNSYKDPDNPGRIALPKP
CGACTTAG: -0.138
CGGTGTGA: 0.0827
GGTGCGAA: -0.0357
GGCTCACA: -0.0925
CAAGAGAC: -0.161
TACTAGTA: -0.128
GTTCGCGA: 0.0461
AAATGTTC: -0.0483
GAACCTAA: 0.108
TGGGTCAA: -0.298
GTTCTCCA: -0.232
TAGCACTA: -0.139
ATACCGCC: 0.36
GTCACAAC: -0.0208
ACGTTCGA: -0.102
AATCCGAG: 0.0528
ATCCGCAT: 0.144
CATGTCAG: -0.167
ATCTACAG: -0.079
CGTCAGTA: -0.0101
AAGAATAG: -0.0183
ACGCTCCG: 0.293
CCCAAACC: -0.0683

Block 6
Target: RING finger protein unkempt homolog, zinc fingers 1-6, GST-SBP tag (UNK, Homo sapiens, UniProt Q9C0B0, residues 30-357)
Method: RNA Bind-n-Seq
Molecule type: RNA
Sample: in vitro
Concentration: not given
Setting: RNA with constant flanks, human and mouse sites, ends assumed
Baseline: input RNA pool
Direction: higher = stronger binding
Quantity: bound/input enrichment
All sequences stand within: GGGAGUUCUACAGUCCGACGAUC … CAACAGAGGAUUGAGCAUCA
Construct (chain): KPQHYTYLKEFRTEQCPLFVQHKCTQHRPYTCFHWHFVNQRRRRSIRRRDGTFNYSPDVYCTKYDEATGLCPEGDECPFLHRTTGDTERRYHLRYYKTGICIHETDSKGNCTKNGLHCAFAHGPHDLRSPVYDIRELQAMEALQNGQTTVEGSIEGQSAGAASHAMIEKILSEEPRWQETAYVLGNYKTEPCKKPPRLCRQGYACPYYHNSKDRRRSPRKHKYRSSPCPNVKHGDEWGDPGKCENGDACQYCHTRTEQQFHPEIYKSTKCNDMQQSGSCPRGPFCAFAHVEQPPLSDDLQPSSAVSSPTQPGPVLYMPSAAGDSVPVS
CAGAUGAUUCUUGACAAGAAGUUUCAUGGGAUUUUGGACCAGGGGGAGGGUGUCCUGAUCAUUUUCGAUGAACCCCCAGUAGAUAAAACUUAUGAAGCUGCUCUGGAAACUAUUCAGAAC: 0.959 ratio
AAGGGCGGGCUUGUAAUUUCUCAUCUGUGAAUUCAUCUGACCCUUGCCCAGCCUUGUUGGAAAUCUUAAGUAAGCUAAGCAGAACAUGAAGCUGCUUGCACAGUCAGGGACUCUGGGAGU: 0.115 ratio
CAUCCUGGAGUCCAGCGUAGCCACCCACAAUCUGUUCUCAGAUUCCUAAUCAUUCCAGAAGUAUUAAAUAUCAUUUCUACAAAUCUCGGCAGGAUCCGUGUAGGGGCCUUAAUGACCACC: 0.263 ratio
AGGAAUCAAGUGCUACCACUUUCUGAUGUGGAUACAACUUCUGCUACAGAUAUUCAAAGAGUAGCUGUGCUAUGUGUUUCCAGAUCUGCUUAUUGUUUGGGUUCAAGCCACCCCAGAGGA: 0.0957 ratio
AAACAUGGAUGUGGUGGCAUAACUUUCGGACUCUGUGUGACUAUAGCAAGAGAAUUGCAGUAGGUAAGUCCACAAGGGUUCUGAGAUAUGAGCGGCCUCCUAGAAAUGAGAAUCAACAGG: 0.208 ratio
GACCCCAUGGCAUCCCCACGAACCAUAACUAUCAUGGCCCUCUCAGUGGCCCUGGGACUCUUCUUUGUUUUCAUGGGGACCAUCAAGUUGACCCCCAGGCUCAGCAAGGAUGCCUACAGU: 0.138 ratio
UCCUGCAGCAACUGCAGCAUGCUGUCCGAGCGCAAGGACGUGCUCACGGCGCACCCCGCGGCCCCCGGGCCCGUGUCGAGAGUUUAUUCUAGGGACAGGAAUCAAAAAUGCGGUGCGUCU: 0.23 ratio
AUUAUUCAGGUUGACAAAGCUUAUGACUACCUCAUUCAAAAUACAUCAUUUGCUAACAGAUUAGGUUUUACAGUUACUGUUGGAAAUAACCGUGGUAUCUACCUCCGAGAUCCUGUCCAG: 0.417 ratio

Some of these lines once more (block 2):
E44F: -1.24 natural log
A46E: -0.63 natural log
K36S: -0.948 natural log
E44Y: -1.24 natural log
I28F: -1.24 natural log
